Measured values from different studies.
Each line is one published result; not all experiments were run side by side. “And” joins repeats or separate records; there may be more than shown. ± marks the error that the study gave. Bridge positions count the residues as written; N and C are the ends. Square brackets hold non-standard residues; d marks the D form. Ends that are not written are not given here.
B1: Ric8b 1-483 A449W (Mus musculus, UniProt Q80XE1); chain MDEERALYIVRAGEAGAIERVLRDYSDKHRATFKFESADEDKRKKLCEGIFKVLVKEVPTTCQVSCLEVLRILSRDKKILVPVTTKENMQILLRLAKLHESDDSLEKVSEFPVIVESLKCLCNIVFNSQMAQQLSLELNLAAKLCNLLRKCKDRKFINDIKCFDLRLLFVLSLLHTDIRSQLRYELQGLPLLTQILESAFSIKWTDEYESAIDHNGPPLSPQETDCAIEALKALFNVTVDSWKVHKESDSHQFRVMAAVLRHCLLIVGPTEDKTEELHSNAVNLLSNVPVSCLDVLICPLTHEETAQEAATLDELPSDKTTEKDTALKNSTMVYNGMNMEAIHVLLNFMEKRIDKGSSYREGLTPVLSLLTECSRAHRNIRKFLKDQVLPPLRDVTNRPEVGSTVRNKLVRLMTHVDLGVKQIAAEFLFVLCKERVDSLLKYTGYGNAWGLLAARGLLAGGRGDNWYSEDEDTDTEEYKNAKP
B2: UGT1A9 (Homo sapiens, UniProt O60656); chain GKLLVVPMDGSHWFTMRSVVEKLILRGHEVVVVMPEVSWQLGRSLNCTVKTYSTSYTLEDLDREFKAFAHAQWKAQVRSIYSLLMGSYNDIFDLFFSNCRSLFKDKKLVEYLKESSFDAVFLDPFDNCGLIVAKYFSLPSVVFARGILCHYLEEGAQCPAPLSYVPRILLGFSDAMTFKERVRNHIMHLEEHLLCHRFFKNALEIASEILQTPVTEYDLYSHTSIWLLRTDFVLDYPKPVMPNMIFIGGINCHQGKPLPMEFEAYINASGEHGIVVFSLGSMVSEIPEKKAMAIADALGKIPQTVLWRYTGTRPSNLANNTILVKWLPQNDLLGHPMTRAFITHAGSHGVYESICNGVPMVMMPLFGDQMDNAKRMETKGAGVTLNVLEMTSEDLENALKAVINDKSYKENIMRLSSLHKDRPVEPLDLAVFWVEFVMRHKGAPHLRPAAHDLTWYQYHSLDVIGFLLAVVLTVAFITFKCCAYGYRKCLGKKGRVKKAHKSKTH
B3: CER1 Fc fusion 18-267 R82G/C206A (Homo sapiens, UniProt O95813); sequence looked up; chain TRHQDGRQNQSSLSPVLLPRNQRELPTGNHEEAEEKPDLFVAVPHLVATSPAGEGQRQREKMLSGFGRFWKKPEREMHPSRDSDSEPFPPGTQSLIQPIDGMKMEKSPLREEAKKFWHHFMFRKTPASQGVILPIKSHEVHWETCRTVPFSQTITHEGCEKVVVQNNLCFGKCGSVHFPGAAQHSHTSASHCLPAKFTTMHLPLNCTELSSVIKVVMLVEECQCKVKTEHEDGHILHAGSQDSFIPGVSA

Substance	target or system	test	test system	setting	scale	quantity	result
cyp102A1 flavin reductase domain (Bacillus megaterium)	CYP3A4 del3-12 (Homo sapiens, UniProt P08684)	BMR-dependent reduction	nanodiscs	with: 1-PB	–	slow phase rate constant	0.0022 s⁻¹
NOTCH2NLB (Homo sapiens, UniProt P0DPK3)	NOTCH2 (Homo sapiens, UniProt Q04721)	pGL3-UAS luciferase, luciferase reporter	U2OS	co-transfection	relative to: empty vector, higher = more activation	reporter activity	63%
B1 (Ric8b 1-483 A449W)	GNAL 1-381 (Homo sapiens, UniProt P38405)	luminescence	RIC-8B knockout HEK293T	–	relative to: wild-type Ric-8B, higher = more folding	sensor folding	36%
EPB41 fragment (Homo sapiens)	SLC9A1 residues 506-575 (Rattus norvegicus)	resonant mirror	–	–	–	koff	0.0071 s⁻¹ and 0.0095 s⁻¹ and 0.0054 s⁻¹ and 0.0034 s⁻¹
B2 (UGT1A9)	O=c1cc(-c2ccc(O)cc2)oc2cc(O)cc(O)c12	steady-state kinetics	–	pH 7.4, 37 °C	–	Vmax/Km	1700 µL/min/mg
GSN (Homo sapiens, UniProt P06396)	actin, pyrene label (Oryctolagus cuniculus, UniProt P68135)	F-actin severing, fluorimetric pyrene-actin assay	–	20 °C, without Ca2+, with: GSN 0.25 µM	–	depolymerization rate	0.62 h⁻¹
PRDX1 (Homo sapiens, UniProt Q06830)	FOXO3 (Homo sapiens, UniProt O43524)	FOXO dual-luciferase reporter	Prdx1-/- MEFs	–	higher = greater repression	reporter signal decrease	50%
DGWSHW (THBS1 residues 436-441 G436D (Homo sapiens))	FN1 intact plasma (Homo sapiens)	competition with coated peptide, radioligand binding	peptide	–	–	IC50	> 300000 nM
Insulin human	–	ELISA	rat, striatum	intranasal, 20 µg per nostril, 60 min	–	concentration	74.8 ± 28.1 pg/mg tissue
B3	INHBB mature (Homo sapiens, UniProt P09529)	SMAD3 luciferase reporter, inhibitor	Fc fusion, A-204	with: Activin B 0.8 nM	–	IC50	3.7 nM
MGRRFLVTVRIQRAGRPLQERVFLVKFVRSRRPRTAS (mouse p19Arf residues 1–37; sequence looked up)	E3 ubiquitin-protein ligase Mdm2, p53-binding domain (MDM2, Homo sapiens, UniProt Q00987)	circular dichroism	peptide	–	–	Kd	≤ 10000 nM
SNRPB2 (Homo sapiens, UniProt P08579)	SNRPA1 1-180 (Homo sapiens, UniProt P09661)	ITC	–	22 °C, apparent, no RNA	–	apparent ΔH	-85 ± 2 kcal/mol
human LCAT	Phosphatidylcholine-sterol acyltransferase (Homo sapiens, UniProt P04180)	enzyme	human plasma	10 µg/mL, with: HDL-mimetic substrate	–	specific activity	7 nmol/µg/h
FKBP1A (Homo sapiens, UniProt P62942)	RYR1 (Oryctolagus cuniculus, UniProt P11716)	planar lipid bilayer recording	planar lipid bilayers	single channel, nonphosphorylated	–	open time	22.1 ms
H[dS]QGTFTSDYSKYLDS[dC]RAQDFVCWLMNTKRNRNNIA-NH2 (oxyntomodulin analog R17C/Q24C, Bph cross-link, D-Cys17; linker 17-24 via Bph; reading uncertain; Bph cross-link, D-Cys17; Bph = not defined here)	GCGR (Homo sapiens, UniProt P47871)	CRE luciferase reporter, agonist	peptide, HEK293	–	–	EC50	3 nM
UUUCAGCUCCGGUCACGCUC (ssRNA; m5C at position 10)	SRSF2 1-115 (Homo sapiens, UniProt Q01130)	NanoBRET competition	–	apparent, not purified	–	Ki	22.9 nM

Excerpt of the above:
Substance	target or system	test	test system	setting	scale	quantity	result
UUUCAGCUCCGGUCACGCUC (ssRNA; m5C at position 10)	SRSF2 1-115 (Homo sapiens, UniProt Q01130)	NanoBRET competition	–	apparent, not purified	–	Ki	22.9 nM
B3	INHBB mature (Homo sapiens, UniProt P09529)	SMAD3 luciferase reporter, inhibitor	Fc fusion, A-204	with: Activin B 0.8 nM	–	IC50	3.7 nM
